Published values gathered from unrelated publications.
Lines come from different studies, so protocols differ. ± marks the error that the study gave.
Target: Acetylcholinesterase (ACHE, Homo sapiens, UniProt P22303)
Chain of UniProt P22303 (whole entry, looked up): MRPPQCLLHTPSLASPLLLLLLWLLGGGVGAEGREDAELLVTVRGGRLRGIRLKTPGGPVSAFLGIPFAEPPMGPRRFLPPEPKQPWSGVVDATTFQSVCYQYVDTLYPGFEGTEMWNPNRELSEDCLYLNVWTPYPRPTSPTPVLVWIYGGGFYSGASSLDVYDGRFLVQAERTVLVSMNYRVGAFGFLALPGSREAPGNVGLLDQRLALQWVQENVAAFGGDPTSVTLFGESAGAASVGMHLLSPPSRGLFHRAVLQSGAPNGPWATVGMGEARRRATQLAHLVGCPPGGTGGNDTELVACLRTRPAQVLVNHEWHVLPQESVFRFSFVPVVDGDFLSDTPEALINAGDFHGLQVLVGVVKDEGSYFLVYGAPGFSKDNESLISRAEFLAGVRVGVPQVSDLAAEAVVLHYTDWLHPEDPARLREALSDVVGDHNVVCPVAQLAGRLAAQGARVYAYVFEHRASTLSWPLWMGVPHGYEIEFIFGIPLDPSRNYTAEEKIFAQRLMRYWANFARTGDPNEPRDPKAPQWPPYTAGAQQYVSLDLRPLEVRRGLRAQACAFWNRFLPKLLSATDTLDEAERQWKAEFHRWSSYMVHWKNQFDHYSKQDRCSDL

Compound | effect on | mode | method | together with | IC50
CCOP(=O)(OCC)SC[S+]([O-])CC (stereo not shown) | enzyme activity | inhibitor |  |  | 500 ± 100 nM
COc1cc(Nc2ncc(F)c(Nc3ccc4c(n3)NC(=O)C(C)(C)O4)n2)cc(OC)c1OC |  |  |  |  | > 10000 nM
CC(C)c1cc2c(c(O)c1O)[C@@]13CCCC(C)(C)[C@@H]1[C@H](OC3=O)[C@H]2O | enzyme activity | inhibitor | colorimetric | acetylthiocholine | 0.73 ± 0.01 nM
COc1ccc(S(=O)(=O)Oc2ccc3c(c2)Oc2nc4c(c(N)c2C3c2cccc(OC)c2)CCCC4)cc1 (stereo not shown) | enzyme activity | inhibitor |  |  | 302 nM
CCOP(=S)(OCC)SCS(=O)(=O)CC | enzyme activity | inhibitor |  |  | 700 ± 100 nM
COc1ccccc1C1c2ccc(OCC(=O)c3ccc(Cl)cc3)cc2Oc2nc3c(c(N)c21)CCCC3 (stereo not shown) | enzyme activity | inhibitor |  |  | 758 nM
CC(=O)[C@H]1CC[C@H]2[C@@H]3CCC4=CC(=O)CC[C@]4(C)[C@H]3CC[C@]12C | enzyme activity | inhibitor |  |  | 12500 nM
CN1CC[C@@]2(C)c3cc(OC(=O)Nc4ccccc4)ccc3N(C)[C@@H]12 | enzyme activity | inhibitor |  |  | 18.6 ± 0.3 nM
CCOP(=O)(OCC)SCSCC | enzyme activity | inhibitor |  |  | 1300 ± 100 nM
Nc1c2c(nc3c1C(c1cccc(Br)c1)c1ccc(OS(=O)(=O)c4ccc(F)cc4)cc1O3)CCCC2 (stereo not shown) | enzyme activity | inhibitor |  |  | 3880 nM

A few entries again:
Compound | effect on | mode | method | together with | IC50
COc1ccc(S(=O)(=O)Oc2ccc3c(c2)Oc2nc4c(c(N)c2C3c2cccc(OC)c2)CCCC4)cc1 (stereo not shown) | enzyme activity | inhibitor |  |  | 302 nM
